# Published values gathered from unrelated publications.
# Numbered parts are unrelated; each lists some results of a single study.
# UniProt O75716, sequence (whole entry, looked up): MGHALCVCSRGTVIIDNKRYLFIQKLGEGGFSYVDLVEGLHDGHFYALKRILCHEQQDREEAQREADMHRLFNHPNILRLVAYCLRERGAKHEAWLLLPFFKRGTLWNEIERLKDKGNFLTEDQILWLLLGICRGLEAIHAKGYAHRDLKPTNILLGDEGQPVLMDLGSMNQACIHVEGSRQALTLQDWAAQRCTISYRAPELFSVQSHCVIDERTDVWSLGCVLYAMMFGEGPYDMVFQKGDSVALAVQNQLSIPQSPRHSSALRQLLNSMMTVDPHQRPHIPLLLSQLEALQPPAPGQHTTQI
# UniProt Q13557, sequence (whole entry, looked up): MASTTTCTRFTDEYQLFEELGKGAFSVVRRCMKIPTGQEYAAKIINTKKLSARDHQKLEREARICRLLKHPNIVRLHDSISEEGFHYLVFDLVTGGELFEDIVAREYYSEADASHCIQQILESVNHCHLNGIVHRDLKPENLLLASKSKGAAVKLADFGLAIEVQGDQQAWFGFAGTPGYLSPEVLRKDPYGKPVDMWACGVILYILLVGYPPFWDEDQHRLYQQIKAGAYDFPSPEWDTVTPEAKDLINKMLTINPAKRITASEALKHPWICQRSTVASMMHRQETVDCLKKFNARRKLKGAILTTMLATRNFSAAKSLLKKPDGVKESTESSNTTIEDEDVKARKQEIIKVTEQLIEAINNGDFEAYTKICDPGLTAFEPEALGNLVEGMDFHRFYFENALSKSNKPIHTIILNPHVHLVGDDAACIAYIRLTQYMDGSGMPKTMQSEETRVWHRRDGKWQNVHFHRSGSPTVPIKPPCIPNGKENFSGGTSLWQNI
# UniProt Q07912, sequence (whole entry, looked up): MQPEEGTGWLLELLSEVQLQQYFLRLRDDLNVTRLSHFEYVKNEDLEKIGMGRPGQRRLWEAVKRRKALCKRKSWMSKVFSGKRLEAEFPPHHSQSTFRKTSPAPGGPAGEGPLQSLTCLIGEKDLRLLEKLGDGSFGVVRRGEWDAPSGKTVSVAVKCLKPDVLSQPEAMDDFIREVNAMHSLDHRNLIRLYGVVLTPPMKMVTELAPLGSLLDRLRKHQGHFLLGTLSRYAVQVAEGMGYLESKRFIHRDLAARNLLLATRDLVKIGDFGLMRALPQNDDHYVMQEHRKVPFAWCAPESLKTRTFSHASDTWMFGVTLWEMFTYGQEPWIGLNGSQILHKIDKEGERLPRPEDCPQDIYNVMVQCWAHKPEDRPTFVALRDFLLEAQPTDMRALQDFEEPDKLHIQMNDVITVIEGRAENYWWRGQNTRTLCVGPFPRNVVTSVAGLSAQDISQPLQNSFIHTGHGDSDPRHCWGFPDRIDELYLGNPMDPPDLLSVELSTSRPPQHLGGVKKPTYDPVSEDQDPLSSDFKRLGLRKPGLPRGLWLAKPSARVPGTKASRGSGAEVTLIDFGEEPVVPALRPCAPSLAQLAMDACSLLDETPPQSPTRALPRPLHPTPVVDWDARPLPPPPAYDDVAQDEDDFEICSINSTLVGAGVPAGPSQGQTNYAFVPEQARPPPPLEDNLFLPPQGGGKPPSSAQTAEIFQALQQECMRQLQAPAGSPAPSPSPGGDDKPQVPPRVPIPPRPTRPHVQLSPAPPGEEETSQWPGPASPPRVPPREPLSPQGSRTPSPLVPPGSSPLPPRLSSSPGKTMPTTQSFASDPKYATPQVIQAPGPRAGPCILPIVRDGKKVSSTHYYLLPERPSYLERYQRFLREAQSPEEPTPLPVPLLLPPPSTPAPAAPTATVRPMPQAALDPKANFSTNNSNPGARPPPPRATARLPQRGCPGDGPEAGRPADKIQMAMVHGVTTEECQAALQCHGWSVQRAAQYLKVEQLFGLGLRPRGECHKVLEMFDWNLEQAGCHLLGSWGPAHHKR
# UniProt P36894, sequence (whole entry, looked up): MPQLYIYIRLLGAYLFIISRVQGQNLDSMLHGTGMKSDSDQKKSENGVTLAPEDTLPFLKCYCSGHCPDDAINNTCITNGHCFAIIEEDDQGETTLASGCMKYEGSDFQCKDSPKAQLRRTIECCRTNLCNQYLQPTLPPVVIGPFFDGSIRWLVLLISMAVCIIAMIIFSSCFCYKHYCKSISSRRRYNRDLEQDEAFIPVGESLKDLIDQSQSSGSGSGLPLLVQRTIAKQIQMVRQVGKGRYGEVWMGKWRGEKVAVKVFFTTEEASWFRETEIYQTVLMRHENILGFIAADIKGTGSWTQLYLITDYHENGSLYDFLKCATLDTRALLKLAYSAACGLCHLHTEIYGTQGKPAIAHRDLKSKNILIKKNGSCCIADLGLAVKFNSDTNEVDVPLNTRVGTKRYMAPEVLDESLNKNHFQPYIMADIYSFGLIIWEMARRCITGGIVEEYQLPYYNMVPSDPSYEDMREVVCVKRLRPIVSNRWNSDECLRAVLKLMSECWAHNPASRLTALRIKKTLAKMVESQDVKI

# Set 1 — method: competition with immobilised ligand; concentration: 1 µM
# SMILES: CO[C@@H](C)c1c(Nc2ccc([C@@H](N(C)C(=O)C3CCS(=O)(=O)CC3)C(F)(F)F)cc2)cnc2cc(Cl)nn12
target,test,remaining binding [%]
"Calcium/calmodulin-dependent protein kinase type II subunit delta (CAMK2D, Homo sapiens, UniProt Q13557)",cell-free assay,100
"Bone morphogenetic protein receptor type-1A (BMPR1A, Homo sapiens, UniProt P36894)",binding,100
"Activated CDC42 kinase 1 (TNK2, Homo sapiens, UniProt Q07912)",cell-free assay,84
"Dual specificity mitogen-activated protein kinase kinase 1 (MAP2K1, Homo sapiens, UniProt Q02750)",cell-free assay,100
"Serine/threonine-protein kinase 16 (STK16, Homo sapiens, UniProt O75716)",cell-free assay,100

# Set 2 — observed: enzyme activity; action: inhibitor; concentration: 0.5 µM; baseline: control
# Target: Ephrin type-A receptor 1 (EPHA1, Homo sapiens, UniProt P21709)
# UniProt P21709, sequence (whole entry, looked up): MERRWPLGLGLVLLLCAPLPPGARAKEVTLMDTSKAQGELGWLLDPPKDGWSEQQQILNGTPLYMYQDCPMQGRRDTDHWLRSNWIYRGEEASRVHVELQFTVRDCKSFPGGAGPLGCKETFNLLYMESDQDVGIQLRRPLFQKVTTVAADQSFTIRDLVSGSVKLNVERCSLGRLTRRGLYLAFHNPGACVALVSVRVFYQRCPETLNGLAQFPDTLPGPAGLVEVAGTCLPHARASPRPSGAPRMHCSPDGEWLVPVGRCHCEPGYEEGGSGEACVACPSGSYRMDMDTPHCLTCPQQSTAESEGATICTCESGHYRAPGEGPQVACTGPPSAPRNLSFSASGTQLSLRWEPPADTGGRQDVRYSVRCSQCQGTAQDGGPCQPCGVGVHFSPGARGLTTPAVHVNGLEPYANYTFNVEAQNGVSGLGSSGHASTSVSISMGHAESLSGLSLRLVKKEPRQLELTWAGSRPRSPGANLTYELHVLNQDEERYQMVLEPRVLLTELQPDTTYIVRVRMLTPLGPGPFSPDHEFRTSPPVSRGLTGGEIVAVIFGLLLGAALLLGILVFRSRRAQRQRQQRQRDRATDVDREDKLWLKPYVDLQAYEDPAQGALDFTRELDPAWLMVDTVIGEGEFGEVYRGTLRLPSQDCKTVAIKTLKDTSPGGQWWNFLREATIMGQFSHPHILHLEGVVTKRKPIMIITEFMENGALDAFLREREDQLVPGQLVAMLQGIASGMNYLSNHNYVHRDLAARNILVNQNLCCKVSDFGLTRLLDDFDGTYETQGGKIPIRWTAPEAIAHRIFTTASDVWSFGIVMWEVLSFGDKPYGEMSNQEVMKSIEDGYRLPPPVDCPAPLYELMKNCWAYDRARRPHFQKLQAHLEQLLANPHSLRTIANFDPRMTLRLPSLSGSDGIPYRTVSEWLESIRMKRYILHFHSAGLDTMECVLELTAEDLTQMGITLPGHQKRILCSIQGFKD
SMILES,remaining activity [%]
CCCNC(=O)Nc1ccc(Oc2ncnc3cc(OC)c(OC)cc23)cc1Cl,96.9
O=C1Nc2ccccc2/C1=C\c1c(Cl)[nH]c2ccccc12,98.5
N#Cc1cnc2cnc(NCc3cccnc3)cc2c1Nc1ccc(F)c(Cl)c1,94.5
c1ccc2c(-c3ccncc3)c[nH]c2c1,105
O=Nc1c(-c2c(O)[nH]c3cc(Br)ccc23)[nH]c2ccccc12,98.5
O=C1Cc2c([nH]c3ccc(Br)cc23)-c2ccccc2N1,100
CN(C)S(=O)(=O)c1ccc2c(c1)/C(=C/c1cc3c([nH]1)CCCC3)C(=O)N2,94.5
Cc1ccc(S(=O)(=O)/C=C/C#N)cc1,93.2

# Set 3 — method: Spec-seq; molecule type: double-stranded DNA, one strand shown; matrix: in vitro; concentration: not given; notes: whole probe, mean of replicates; baseline: not given; direction: lower = stronger binding; shared flanks, not repeated: GAGTCGTCTCGTCAGCAC … CCGTAGAGCACTCAGGTC
# Target: Transcription factor SOX-2, HMG box (Sox2, Mus musculus, UniProt P48432, residues 41-119)
# UniProt P48432, sequence (41-119, looked up): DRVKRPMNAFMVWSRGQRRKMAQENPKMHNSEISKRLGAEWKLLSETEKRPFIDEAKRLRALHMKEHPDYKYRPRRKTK
Strand,relative binding energy [ln ratio]
CGCAGTT,0.685
GAATGTT,0.305
GGGTGTT,1.24
CATCTGC,0.977
AAACGTT,-0.416
AACGGTT,-0.589
CATTTCT,0.00321
CATAGAT,-0.853

# Set 4 — method: RNA Bind-n-Seq; molecule type: RNA; matrix: in vitro; concentration: 365 nM; baseline: no-protein control; direction: higher = stronger binding
# Target: RNA binding protein fox-1 homolog 2, RRM domain, GST-SBP tag (RBFOX2, Homo sapiens, UniProt O43251-10, residues 100-194)
# Notes: natural RNA segment, single round, ends assumed
# Shared flanks, not repeated: GGGAGUUCUACAGUCCGACGAUC … UGGAAUUCUCGGGUGCCAA
# Residues (chain): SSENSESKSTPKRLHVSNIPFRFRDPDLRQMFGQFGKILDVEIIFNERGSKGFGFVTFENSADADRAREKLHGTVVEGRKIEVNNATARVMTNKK
Strand,RBNS enrichment (R)
AAGACACAAGAGUGACAUCUGAUCCUAGCACGGGGCCUGUUGAUCCAUUGCCUGGACUGAGCUGUGAAACUGGACGCGGUUUUGGUUUUUUGUUUUGUGUUUCUUUUUUC,2.67
AAGAAAUCCAGCCAAGUUCCUCUGUCCAAAUUUUUAAGUGCCCUUUGCAAGCUAAUCUAUUUGGCAAAAAAAUAGUCCCAGUUGUUCAACUAGCUCCCUUAAAACAUUCU,0.408
AUGGCCGCCCCACUCAGGUGUUCGUUGUUACAGUGCUAAUGGAUCCUGGGUGCAGUAGGCGCUGGGUCCUCCUGACCUCUGUUUCACUGUUUGUGGUAAGGUAGCCACAC,0.688
GUGUGGUGGAGAAGAUGCAGCCCAAGGUCACAUACAGGAGGGAUUGGGGACAAGGCAGGUGUAGGGCAGGUCAGGCCGUUGAACAUCUUCCACUCAAAUCUGCUCAGGUU,1.01
ACGUGUCCCUAGCUUAGUAUAAGUAGAUCUGUAGUUGGGCCCAGAGGAAUAUGGCCGGACAGGAGACUUACUUGUGGAGAAGGGACAGACCAGGCCUUCCCUCUAGGGCU,0.557
CUCUCCAAGAGGCCUCAGUCCCCAAGACUGCCACCAGUCUACACAUACAGCAGCCCCCUGGACAGAAUCAGCAUUUCAGCUCAGCUGGCCUGGGAUGGGCCAGGCUGGUC,0.315
CGUUCAGGAAGUUUUUAGCUCUGUACUUGCAUGGUGUUGUGUGAACUAAGAACUUUCUGGAGCCUGGUGCCCUACUACCUUCCUGCCUCAGAAGAGCUCAUGUCCUGGGA,36.2
UUCCUCCUGCCUCAGUCUCCCAAGUGCUACAAUGACGGGCCUUUGCCACUAUGCUUGGCUGGCCUUGCUCUUGCCACAAAAGCUCGUUGGAUGGAAAAAGCUGAAGCAAG,0.474

# For quick reference, copied from above (set 1):
target,test,remaining binding [%]
"Serine/threonine-protein kinase 16 (STK16, Homo sapiens, UniProt O75716)",cell-free assay,100
"Activated CDC42 kinase 1 (TNK2, Homo sapiens, UniProt Q07912)",cell-free assay,84
"Bone morphogenetic protein receptor type-1A (BMPR1A, Homo sapiens, UniProt P36894)",binding,100
"Calcium/calmodulin-dependent protein kinase type II subunit delta (CAMK2D, Homo sapiens, UniProt Q13557)",cell-free assay,100
"Dual specificity mitogen-activated protein kinase kinase 1 (MAP2K1, Homo sapiens, UniProt Q02750)",cell-free assay,100
